Measurements gathered from unrelated publications.
Each numbered part is a random draw from the data of one study; scales do not carry over between parts. Values joined by “and” are separate records of one study, mostly repeats; a detail may differ.
Chain of UniProt P17948 (whole entry, looked up): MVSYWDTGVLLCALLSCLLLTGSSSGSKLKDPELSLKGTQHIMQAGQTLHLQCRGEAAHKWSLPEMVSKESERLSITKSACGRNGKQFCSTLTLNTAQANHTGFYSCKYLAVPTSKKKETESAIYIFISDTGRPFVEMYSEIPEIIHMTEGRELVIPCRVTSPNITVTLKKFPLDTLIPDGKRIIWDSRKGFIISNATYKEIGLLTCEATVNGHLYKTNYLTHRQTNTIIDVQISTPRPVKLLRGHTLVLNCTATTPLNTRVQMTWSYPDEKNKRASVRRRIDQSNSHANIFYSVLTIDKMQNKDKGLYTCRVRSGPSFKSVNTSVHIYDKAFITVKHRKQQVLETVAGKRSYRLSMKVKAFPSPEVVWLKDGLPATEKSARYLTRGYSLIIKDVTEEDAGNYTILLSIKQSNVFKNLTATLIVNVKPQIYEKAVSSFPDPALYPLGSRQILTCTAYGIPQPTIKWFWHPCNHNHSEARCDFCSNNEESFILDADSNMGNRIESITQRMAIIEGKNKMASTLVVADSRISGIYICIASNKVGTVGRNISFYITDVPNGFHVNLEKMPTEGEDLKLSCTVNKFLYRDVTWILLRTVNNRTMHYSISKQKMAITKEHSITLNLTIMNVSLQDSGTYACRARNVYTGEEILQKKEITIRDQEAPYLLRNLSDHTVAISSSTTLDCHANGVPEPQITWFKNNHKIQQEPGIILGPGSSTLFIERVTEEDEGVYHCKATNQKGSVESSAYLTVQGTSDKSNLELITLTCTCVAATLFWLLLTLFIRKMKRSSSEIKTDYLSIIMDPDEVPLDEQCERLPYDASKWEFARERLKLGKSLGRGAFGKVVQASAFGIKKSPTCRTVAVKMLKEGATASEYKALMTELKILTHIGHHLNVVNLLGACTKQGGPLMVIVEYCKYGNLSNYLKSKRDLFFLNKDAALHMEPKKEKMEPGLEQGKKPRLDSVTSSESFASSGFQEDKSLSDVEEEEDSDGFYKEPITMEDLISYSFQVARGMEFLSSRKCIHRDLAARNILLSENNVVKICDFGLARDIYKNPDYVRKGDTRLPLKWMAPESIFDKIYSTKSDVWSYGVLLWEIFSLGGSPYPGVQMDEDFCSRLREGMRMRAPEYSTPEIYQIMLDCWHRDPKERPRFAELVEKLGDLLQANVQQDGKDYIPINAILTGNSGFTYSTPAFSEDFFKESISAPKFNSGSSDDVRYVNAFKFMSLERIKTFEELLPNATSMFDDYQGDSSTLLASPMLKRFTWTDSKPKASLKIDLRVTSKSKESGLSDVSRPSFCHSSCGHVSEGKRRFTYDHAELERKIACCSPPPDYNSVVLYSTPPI
Chain of UniProt P49336 (whole entry, looked up): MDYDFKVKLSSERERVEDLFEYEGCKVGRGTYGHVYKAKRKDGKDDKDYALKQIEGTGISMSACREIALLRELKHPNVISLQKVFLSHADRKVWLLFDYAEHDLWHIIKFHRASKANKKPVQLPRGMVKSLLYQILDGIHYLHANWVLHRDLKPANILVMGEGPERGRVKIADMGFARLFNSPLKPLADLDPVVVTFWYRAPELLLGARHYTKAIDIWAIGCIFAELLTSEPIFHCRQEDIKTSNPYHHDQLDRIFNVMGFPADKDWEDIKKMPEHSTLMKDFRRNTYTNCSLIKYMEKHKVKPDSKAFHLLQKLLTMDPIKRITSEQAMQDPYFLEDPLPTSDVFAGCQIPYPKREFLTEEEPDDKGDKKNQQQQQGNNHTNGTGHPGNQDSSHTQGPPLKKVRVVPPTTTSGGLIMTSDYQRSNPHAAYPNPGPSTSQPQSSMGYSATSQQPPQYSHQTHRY
Chain of UniProt Q9HBY8 (whole entry, looked up): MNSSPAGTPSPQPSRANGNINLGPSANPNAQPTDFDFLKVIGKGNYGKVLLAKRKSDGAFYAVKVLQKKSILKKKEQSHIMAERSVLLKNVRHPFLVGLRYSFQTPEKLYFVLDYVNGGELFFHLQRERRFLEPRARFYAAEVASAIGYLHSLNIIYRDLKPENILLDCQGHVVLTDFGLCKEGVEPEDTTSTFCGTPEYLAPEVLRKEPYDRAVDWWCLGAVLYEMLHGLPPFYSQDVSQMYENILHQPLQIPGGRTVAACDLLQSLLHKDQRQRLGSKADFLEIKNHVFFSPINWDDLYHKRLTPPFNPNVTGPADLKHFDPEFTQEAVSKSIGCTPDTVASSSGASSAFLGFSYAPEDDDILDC
Chain of UniProt Q14012 (whole entry, looked up): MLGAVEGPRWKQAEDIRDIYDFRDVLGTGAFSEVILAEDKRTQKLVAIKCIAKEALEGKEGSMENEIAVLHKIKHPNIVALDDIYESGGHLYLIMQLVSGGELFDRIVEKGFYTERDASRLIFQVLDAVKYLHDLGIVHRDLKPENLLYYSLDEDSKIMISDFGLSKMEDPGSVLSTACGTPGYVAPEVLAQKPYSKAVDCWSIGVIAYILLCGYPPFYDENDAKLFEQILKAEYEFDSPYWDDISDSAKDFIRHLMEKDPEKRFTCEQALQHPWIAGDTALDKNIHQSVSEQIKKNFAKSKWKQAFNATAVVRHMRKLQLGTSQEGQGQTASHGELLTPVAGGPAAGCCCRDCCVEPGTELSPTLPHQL

Study 1 — method: phase 2a clinical trial
SMILES: CC(C)n1cnc(-c2ccc(F)cc2)c1-c1ncc(C(=O)Nc2ccc(N3CCN(C)CC3)cc2)[nH]1
Species: patients with idiopathic pulmonary fibrosis
measured	dose	notes	patients with treatment-emergent adverse events [%]
first degree atrioventricular block	dose not given	Grade 5, all drug arms	0
lumbar vertebral fracture	60 mg once daily	Grade 1, maximum intensity	0
carbon dioxide decreased	30 mg once daily	Grade 2	0
electrocardiogram T wave abnormal	30 mg once daily	Grade 5	0
C-reactive protein increased	30 mg once daily	Grade 5	0
electrocardiogram high voltage	30 mg once daily	Grade 4	0
first degree atrioventricular block	60 mg once daily	Grade 2	0
benign prostatic hyperplasia	30 mg once daily	Grade 4, maximum intensity	0
metabolism and nutrition disorders (SOC)	dose not given	Grade 4, all drug arms total	0
lumbar vertebral fracture	30 mg once daily	Grade 4, maximum intensity	0
drug-induced liver injury	60 mg once daily	Grade 1	0
metabolism and nutrition disorders (SOC)	dose not given	Grade 5, all drug arms total	0
benign prostatic hyperplasia	60 mg once daily	Grade 3, maximum intensity	0
carbon dioxide decreased	dose not given	Grade 3, all drug arms total	0
gastro-oesophageal reflux disease	60 mg once daily	Grade 2	0

Study 2 — method: competition with immobilised ligand; concentration: 1 µM
SMILES: CCCOc1ccc([C@H]2[C@H](C(=O)O)[C@@H](c3ccc4c(c3)OCO4)CN2CC(=O)Nc2c(CC)cccc2CC)cc1
target	effect on	remaining binding [%]
STK38L (Homo sapiens, UniProt Q9Y2H1)	cell-free assay	88
MAP3K19 (Homo sapiens, UniProt Q56UN5)	cell-free assay	77
FLT1 (Homo sapiens, UniProt P17948)	cell-free assay	97
MINK1 (Homo sapiens, UniProt Q8N4C8)	cell-free assay	68
RIOK2 (Homo sapiens, UniProt Q9BVS4)	cell-free assay	71
CDK8 (Homo sapiens, UniProt P49336)	cell-free assay	76
Myosin-IIIb (MYO3B, Homo sapiens, UniProt Q8WXR4)	binding	66
EPHB2 (Homo sapiens, UniProt P29323)	cell-free assay	100
GRK4 (Homo sapiens, UniProt P32298)	cell-free assay	100
Tyrosine-protein kinase ABL1, non-phosphorylated (ABL1, Homo sapiens, UniProt P00519, H396P)	cell-free assay	63
PTK2 (Homo sapiens, UniProt Q05397)	cell-free assay	86
MAP3K12 (Homo sapiens, UniProt Q12852)	cell-free assay	52
FLT3 (Homo sapiens, UniProt P36888, K663Q)	cell-free assay	100
PIK3CA (Homo sapiens, UniProt P42336, H1047Y)	cell-free assay	78
FLT3 (Homo sapiens, UniProt P36888, D835V/ITD)	cell-free assay	59

Study 3 — effect on: enzyme activity; action: inhibitor; concentration: 77 µM; relative to: untreated
Target: DNA polymerase theta, ATPase domain (POLQ, Homo sapiens, UniProt O75417)
Chain of UniProt O75417 (whole entry, unmodified, looked up): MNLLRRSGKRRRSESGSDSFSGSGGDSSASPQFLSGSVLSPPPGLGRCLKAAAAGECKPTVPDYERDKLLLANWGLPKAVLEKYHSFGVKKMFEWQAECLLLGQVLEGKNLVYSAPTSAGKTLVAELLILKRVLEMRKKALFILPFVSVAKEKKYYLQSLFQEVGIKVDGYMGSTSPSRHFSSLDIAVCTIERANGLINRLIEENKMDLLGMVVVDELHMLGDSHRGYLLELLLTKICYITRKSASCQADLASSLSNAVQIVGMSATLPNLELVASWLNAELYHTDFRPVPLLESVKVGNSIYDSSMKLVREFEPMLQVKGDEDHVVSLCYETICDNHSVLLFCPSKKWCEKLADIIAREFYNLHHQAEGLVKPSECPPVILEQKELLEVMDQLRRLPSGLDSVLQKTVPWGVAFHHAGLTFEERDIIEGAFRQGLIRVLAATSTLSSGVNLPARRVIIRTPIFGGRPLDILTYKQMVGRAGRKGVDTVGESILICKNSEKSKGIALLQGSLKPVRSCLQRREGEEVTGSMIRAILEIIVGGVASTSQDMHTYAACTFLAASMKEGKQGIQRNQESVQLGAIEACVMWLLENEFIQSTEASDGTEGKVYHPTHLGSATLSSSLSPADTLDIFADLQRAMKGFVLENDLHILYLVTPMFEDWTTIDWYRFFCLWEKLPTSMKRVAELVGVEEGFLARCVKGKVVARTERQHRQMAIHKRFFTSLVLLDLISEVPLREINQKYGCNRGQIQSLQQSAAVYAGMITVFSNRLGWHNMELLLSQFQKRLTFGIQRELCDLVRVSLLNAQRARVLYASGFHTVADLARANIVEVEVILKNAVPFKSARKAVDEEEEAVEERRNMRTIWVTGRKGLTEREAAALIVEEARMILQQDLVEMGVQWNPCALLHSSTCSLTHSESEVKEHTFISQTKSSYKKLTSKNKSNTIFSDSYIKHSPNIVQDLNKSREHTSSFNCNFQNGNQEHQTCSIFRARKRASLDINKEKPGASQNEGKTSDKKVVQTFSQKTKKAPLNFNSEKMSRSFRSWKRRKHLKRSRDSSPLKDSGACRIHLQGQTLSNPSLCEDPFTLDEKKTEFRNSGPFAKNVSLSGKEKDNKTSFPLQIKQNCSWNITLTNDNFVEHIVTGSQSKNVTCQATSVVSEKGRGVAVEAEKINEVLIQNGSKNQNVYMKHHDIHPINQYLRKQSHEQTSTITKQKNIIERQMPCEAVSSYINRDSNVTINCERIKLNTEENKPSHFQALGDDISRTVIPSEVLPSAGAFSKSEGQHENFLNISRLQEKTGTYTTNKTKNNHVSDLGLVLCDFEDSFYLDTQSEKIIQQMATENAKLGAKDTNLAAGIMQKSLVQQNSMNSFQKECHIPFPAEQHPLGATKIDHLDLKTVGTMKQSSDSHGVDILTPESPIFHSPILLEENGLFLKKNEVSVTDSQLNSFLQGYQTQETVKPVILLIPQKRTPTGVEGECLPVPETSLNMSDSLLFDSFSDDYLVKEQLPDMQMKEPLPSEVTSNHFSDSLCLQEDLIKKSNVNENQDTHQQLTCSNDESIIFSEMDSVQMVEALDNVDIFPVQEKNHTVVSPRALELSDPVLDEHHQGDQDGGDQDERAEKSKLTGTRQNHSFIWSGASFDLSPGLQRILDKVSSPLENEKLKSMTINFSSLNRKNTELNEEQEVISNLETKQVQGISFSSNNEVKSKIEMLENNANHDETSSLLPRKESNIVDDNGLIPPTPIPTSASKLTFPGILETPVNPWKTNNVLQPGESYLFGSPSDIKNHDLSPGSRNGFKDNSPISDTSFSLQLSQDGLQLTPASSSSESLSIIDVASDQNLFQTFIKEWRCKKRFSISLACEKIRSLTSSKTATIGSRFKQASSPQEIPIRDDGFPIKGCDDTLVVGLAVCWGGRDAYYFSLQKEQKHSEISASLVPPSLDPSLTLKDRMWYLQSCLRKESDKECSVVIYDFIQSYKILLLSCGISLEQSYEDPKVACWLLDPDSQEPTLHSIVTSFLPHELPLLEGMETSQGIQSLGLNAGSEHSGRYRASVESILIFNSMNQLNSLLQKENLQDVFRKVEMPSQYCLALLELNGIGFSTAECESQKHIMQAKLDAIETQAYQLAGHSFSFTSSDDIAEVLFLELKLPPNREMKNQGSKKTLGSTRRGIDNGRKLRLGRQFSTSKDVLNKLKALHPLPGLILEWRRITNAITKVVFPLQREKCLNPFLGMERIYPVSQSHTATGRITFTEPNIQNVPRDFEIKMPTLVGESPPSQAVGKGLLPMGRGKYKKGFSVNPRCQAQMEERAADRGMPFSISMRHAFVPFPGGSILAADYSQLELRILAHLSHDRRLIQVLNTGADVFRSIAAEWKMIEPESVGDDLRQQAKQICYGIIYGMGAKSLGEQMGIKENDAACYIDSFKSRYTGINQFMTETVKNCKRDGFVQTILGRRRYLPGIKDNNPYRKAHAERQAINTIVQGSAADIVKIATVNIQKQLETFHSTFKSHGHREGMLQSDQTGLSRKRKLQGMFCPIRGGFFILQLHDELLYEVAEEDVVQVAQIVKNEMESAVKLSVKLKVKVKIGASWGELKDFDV
SMILES	remaining activity
CC(=O)OCC(=O)[C@@]1(O)CC[C@H]2[C@@H]3CCC4=CC(=O)CC[C@]4(C)[C@@]3(F)[C@@H](O)C[C@@]21C	100%
CCCCc1ncc(/C=C(\Cc2cccs2)C(=O)O)n1Cc1ccc(C(=O)O)cc1	90.2% and 88.1%
O=C1CCC(N2C(=O)c3ccccc3C2=O)C(=O)N1 (centres unmarked)	99.5% and 76.6%
CC(=O)Nc1cccc(-n2c(=O)n(C3CC3)c(=O)c3c(Nc4ccc(I)cc4F)n(C)c(=O)c(C)c32)c1	99.3%
CCN(CC)CCCCNc1ncc2cc(-c3cc(OC)cc(OC)c3)c(NC(=O)NC(C)(C)C)nc2n1	97.2%
CC(C)(C)C(=O)OCOP(=O)(COCCn1cnc2c(N)ncnc21)OCOC(=O)C(C)(C)C	95.6%
COC(=O)[C@]12CCC(C)(C)C[C@H]1[C@H]1C(=O)C=C3[C@@]4(C)C=C(C#N)C(=O)C(C)(C)[C@@H]4CC[C@@]3(C)[C@]1(C)CC2	56.7%
CCN1CCN(Cc2ccc(Nc3ncc(F)c(-c4cc(F)c5nc(C)n(C(C)C)c5c4)n3)nc2)CC1	96.3%
NC(=O)c1noc([C@H](CCCC2CCCCC2)CC(=O)NO)n1	95.9%

Study 4 — effect on: enzyme activity; action: inhibitor; concentration: 0.5 µM; relative to: control
Compound: COc1ccc2c(c1)c(C1=C(c3c[nH]c4ccccc34)C(=O)NC1=O)cn2CCCN(C)C
target	remaining activity [%]
TYRO3 (Homo sapiens, UniProt Q06418)	90.7
PRKCQ (Homo sapiens, UniProt Q04759)	4.5
CAMK1 (Homo sapiens, UniProt Q14012)	90.2
CLK2 (Homo sapiens, UniProt P49760)	78
CLK1 (Homo sapiens, UniProt P49759)	48.2
PRKCZ (Homo sapiens, UniProt Q05513)	78.2
PAK6 (Homo sapiens, UniProt Q9NQU5)	70.4
SRPK1 (Homo sapiens, UniProt Q96SB4)	116
CSNK1E (Homo sapiens, UniProt P49674)	86.4
TEC (Homo sapiens, UniProt P42680)	97.9
SIK2 (Homo sapiens, UniProt Q9H0K1)	103
Cyclin-dependent kinase 2, with cyclin E (CDK2, Homo sapiens, UniProt P24941)	97.9
RPS6KA3 (Homo sapiens, UniProt P51812)	6.55
EPHA2 (Homo sapiens, UniProt P29317)	91.3
JAK1 (Homo sapiens, UniProt P23458)	100
FLT1 (Homo sapiens, UniProt P17948)	22
MUSK (Homo sapiens, UniProt O15146)	53.5
SGK2 (Homo sapiens, UniProt Q9HBY8)	92.6
MAP3K20 (Homo sapiens, UniProt Q9NYL2)	95.9
CAMKK1 (Homo sapiens, UniProt Q8N5S9)	94.8
CSNK1D (Homo sapiens, UniProt P48730)	92
PAK1 (Homo sapiens, UniProt Q13153)	87.4
IGF1R (Homo sapiens, UniProt P08069)	115
